Measured values gathered from unrelated publications.
Each line is one published result; not all experiments were run side by side. ± marks the error that the study gave.

| Compound | assay | system | conditions | scale | measurement | result |
| --- | --- | --- | --- | --- | --- | --- |
| CC[C@H](C)[C@H](NC(=O)[C@H](N)Cc1ccc(O)cc1)C(=O)N[C@H]1CSSC[C@@H](C(=O)N(C)[C@H](C(N)=O)[C@@H](C)CC)NC(=O)[C@H](CCCNC(=N)N)NC(=O)[C@H](Cc2c[nH]cn2)NC(=O)[C@H](C)NC(=O)CN(C)C(=O)[C@H](Cc2c[nH]c3ccccc23)NC(=O)[C@H](CC(=O)O)NC(=O)[C@H](CCC(N)=O)NC(=O)[C@H](Cc2cn(C)c3ccccc23)NC(=O)[C@H](C(C)C)NC1=O | UPLC-ESI-MS | cynomolgus monkey plasma | 0.18 µg/mL, 48 h, 4 °C, autosampler after SPE |  | recovery | 100.2 ± 0.2% |
| C1=C(c2cc3c(Nc4ccc5scnc5c4)ncnc3s2)CCSC1 |  | BALB/c mouse, plasma | oral, 10 mg/kg, 30 min |  | concentration | 8.48 ng/mL |
| Cc1ccc(OCC(=O)N(Cc2cccs2)c2ccn[nH]2)cc1 |  | male beagle dog, plasma | intravenous, 1 mg/kg, single dose |  | AUC(0-t) | 942 ng·h/mL |
| Cc1ccccc1-c1cc(N2CC[N+](C)([O-])CC2)ncc1N(C)C(=O)C(C)(C)c1cc(C(F)(F)F)cc(C(F)(F)F)c1 |  | human plasma |  | unbound fraction | fu | < 0.03 |
| COC(=O)C(c1ccccc1Cl)N1CCC(SCC(=O)c2cccc(OC)c2)C(=CC(=O)O)C1 (mixture of isomers) | HPLC-MS/MS | feline citrate plasma | 100 ng/mL, 12 h, -80 °C, storage stability |  | deviation from nominal | -1% |
| Brc1ccc(Nc2nc(NN=Cc3c[nH]c4ccccc34)nc(N3CCOCC3)n2)cc1 |  | human liver microsomes |  |  | CLint | 0 mL/min/g protein |
| COc1cc(NC(C)=O)c2c(c1O)-c1c(OC)c(OC)cc3c1C(C2)N(C)CC3 (centres unmarked) |  | rat, plasma | 5 µg/mL, time not given, -20 °C to room temperature, three freeze-thaw cycles |  | remaining compound | 99.5 ± 1.6% |
| NC[C@@H](C(=O)Nc1ccc(-c2cn[nH]c2)cc1)c1ccccc1 | OECD 405, measured: Chemosis | New Zealand White rabbit | topical, 0.1 %, 80 h, day 4 | direction not given | ocular irritation score | 0 |
| CCCC[C@@H]1NC(=O)[C@@H](NC(=O)[C@H](CCC(=O)O)NC(=O)CNC(=O)CN2CCN(CC(=O)O)CCN(CC(=O)O)CCN(CC(=O)O)CC2)CCCCNC(=O)C[C@@H](C(N)=O)NC(=O)[C@H](C(C)C)NC(=O)[C@@H]2CCCN2C(=O)[C@H](CCCNC(=N)N)NC(=O)CNC(=O)[C@H](Cc2c[nH]c3ccccc23)NC(=O)[C@H](CCCNC(=N)N)NC(=O)[C@@H](Cc2ccccc2)NC(=O)[C@H](Cc2c[nH]cn2)NC(=O)[C@H](CCC(=O)O)NC1=O [gallium-67 labelled] |  | C57 mice with B16/F1 melanoma, kidneys | intravenous, 0.037 MBq, 24 h |  | tissue uptake | 20.9 ± 5.77 %ID/g |
| O=c1nc(NO)ccn1[C@@H]1O[C@H](CO)[C@@H](O)[C@H]1O | Western blot, measured: CYP2D6 | rat, normal, liver | oral, 80 mg/kg twice daily, 5 days | relative to: control group | protein level | 1.1 fold |
| CCCC[C@H](NC(=O)CNC(=O)CNC(=O)CN1CCN(CC(=O)O)CCN(CC(=O)O)CCN(CC(=O)O)CC1)C(=O)N[C@H]1CC(=O)NCCCC[C@@H](C(N)=O)NC(=O)[C@H](Cc2c[nH]c3ccccc23)NC(=O)[C@H](CCCNC(=N)N)NC(=O)[C@@H](Cc2ccccc2)NC(=O)[C@H](Cc2c[nH]cn2)NC1=O [copper-64 labelled] |  | female C57 mouse, B16/F1 melanoma | intravenous, 0.037 MBq, 0.5 h | relative to: tumour over kidneys | uptake ratio | 0.39 |
| COc1ccc(/C=C/C2=[N+]3C(=C(C=O)c4c(C)c(Br)c(/C=C/c5ccc(OC)cc5)n4[B-]3(F)F)C(C)=C2Br)cc1 |  | acetonitrile | room temperature |  | luminescence quantum yield | 2.5 ± 0.4% |
| O=C(NCCCN(CCCCN(CCCNC(=O)c1cccc(=O)n1[O-])C(=O)c1cccc(=O)n1[O-])C(=O)c1cccc(=O)n1[O-])c1cccc(=O)n1[O-].[89Zr+4] | radio-TLC | PBS | 5 d, pH 7.4, 37 °C, with: Co^2+ 10-fold excess |  | intact complex | 98.6 ± 2% |
| NC12CNCCNCC(NCc3ccc(CNC(=O)CCCC(=O)NCc4ccc(-c5nncnn5)cc4)cc3)(CNCCNC1)CNCCNC2.[64Cu+2] |  | athymic nude mice, SW1222 xenograft, small intestine with contents | 4 h, pretargeting with huA33-TCO, 24 h interval |  | tissue uptake | 0.62 ± 0.06 %ID/g |
| O=C(Cc1ccc(-c2ccc(OCCN3CCOCC3)cc2)cn1)NCc1ccc(F)cc1 |  | human, plasma |  |  | unbound fraction | 0.126 |
| Cc1cc2c(NC(=O)N[C@@H]3CC(C)(C)Oc4cc(C(F)(F)F)ccc43)c(C)ccc2cn1 | telemetry | male Sprague-Dawley rats | oral, 100 µmol/kg | relative to: vehicle | maximum body temperature increase | 1.4 °C |
| Cn1c(=O)oc2ccc(-c3ccc(CC(C#N)NC(=O)C4CNCCCO4)c(F)c3)cc21 (centres unmarked) |  | human | oral, 10 mg once daily, treatment-related AE, multiple ascending dose |  | bilirubin increased incidence | 0% |
| CC(C)[C@H](NC(=O)CNC(=O)[C@H](CCC(N)=O)NC(=O)[C@H](C)N)C(=O)O | LC-MS/MS | human, male, plasma | intravenous, 20 mg/kg three times daily, day 1, first dose, 10 min infusion, geometric mean |  | Cmax | 4390 ng/mL |
| CCC/C(=C\C1=C(OC)C(=O)c2ccccc2C1=O)C(=O)NOC |  | mouse plasma | 1 µM, 37 °C |  | t1/2 | 17 min |
| Cc1[nH]nc2c1N=C(c1ccccc1Cl)c1cnc(NCC(=O)O)cc1N2 |  | human male, urine | oral, 10 mg, 0-72 h |  | urinary excretion | 0.37 %Dose |
| CN(C)C(CNC(=O)Nc1cc(C(F)(F)F)ccc1N1CCOCC1)c1ccncc1 (centres unmarked) |  | mouse, C57BL/6J | intraperitoneal, 5 mg/kg, 2 h | relative to: brain over plasma | tissue/plasma ratio | 0.26 ± 0.07 |
| C=C(c1cc(F)c(C(=O)O)c(F)c1)c1cc2c(cc1C)C(C)(C)CCC2(C)C |  | Sprague-Dawley rat, male, plasma | oral, 100 mg/kg, 12 h, sesame oil vehicle |  | HDL level | 46 ± 12.1 mg/dL |

| Compound | assay | system | conditions | scale | measurement | result |
| --- | --- | --- | --- | --- | --- | --- |
| CC(=O)N[C@H](CC(=O)O)C(=O)N[C@H](Cc1c[nH]c2ccccc12)C(=O)N[C@H](Cc1ccccc1)C(=O)N[C@H](CCCCN)C(=O)N[C@H](C)C(=O)N[C@H](Cc1ccccc1)C(=O)N[C@H](Cc1ccc(O)cc1)C(=O)N[C@H](CC(=O)O)C(=O)N[C@H](CCCCN)C(=O)N[C@@H](C(=O)N[C@H](C)C(=O)N[C@H](CCC(=O)O)C(=O)N[C@H](CCCCN)C(=O)N[C@H](Cc1ccccc1)C(=O)N[C@H](CCCCN)C(=O)N[C@H](CCC(=O)O)C(=O)N[C@H](C)C(=O)N[C@H](Cc1ccccc1)C(N)=O)C(C)C |  | statin-treated high-risk CHD men, plasma | oral, 300 mg daily, day 1, 0 to 2 h, mean, detected subjects only |  | Cmax | 5.7 ng/mL |
| C=CC(=O)Nc1cc(Nc2nccc(-c3cn(C4CC4)c4ccccc34)n2)c(OC)cc1NC | radiolabelled metabolite profiling | human male, plasma | oral, 110 mg, 24 h |  | plasma concentration | 10.5 ng/g |
| N=C(N)NCCC[C@@H]1NC(=O)[C@H](Cc2c[nH]c3ccccc23)NC(=O)[C@@H](CC2CCCCC2)NC(=O)[C@@H]2CCCN2C(=O)[C@@H](NC(=O)CCc2ccccc2)CCCNC1=O | two-compartment model | C57BL/6J mice, plasma | intravenous, 1 mg/kg |  | alpha rate constant | 0.46 min⁻¹ |
| C[C@H](NC(=O)C[C@H](CCCNC(=N)N)NC(=O)[C@@H]1CCCN1C(=O)[C@H](CCCNC(=N)N)NC(=O)CNC(=O)c1ccc2c(c1)C1(OC2=O)c2ccc(O)cc2Oc2cc(O)ccc21)C(=O)N[C@@H](C)C(=O)N[C@H](C(=O)N[C@@H](Cc1ccccc1)C(=O)N[C@@H](C)C(=O)N[C@@H](CCC(=O)O)C(=O)NCC(N)=O)[C@@H](C)O |  | HeLa cytosolic lysate | 1 µM, 37 °C |  | t1/2 | 9 min |
| CC(C)(O)c1ncc([S@](N)(=O)=NC(=O)Nc2c3c(cc4c2CCC4)CCC3)s1 |  | healthy human | oral, 200 mg once daily, day 1, spray-dried dispersion, geometric mean |  | Cmax | 22100 ng/mL |
| COc1ccc2c(c1)c(CC(=O)[O-])c(C)n2C(=O)c1ccc(Cl)cc1.COc1ccc2c(c1)c(CC(=O)[O-])c(C)n2C(=O)c1ccc(Cl)cc1.[Co+2].c1c[nH]cn1.c1c[nH]cn1 | cyclic voltammetry | DMSO/buffer | Co(II)/Co(I) couple, no DNA |  | anodic peak potential | -510 mV |
| COc1cc2nnn(C(=O)N3COCC3(C)C)c2cc1OC |  | mouse liver microsomes | 50 µM, 1 h |  | compound remaining | 55% |
| C[C@H](NC(=O)COC(=O)[C@H](C)NC(=O)CO)C(=O)O |  | water | pH 8, 25 °C |  | depolymerization half-life | 10.8 min |
| COc1ccc2cc(-c3ccc(-c4ccc(C)cn4)nc3)oc2c1 |  | DMF | with: quinine bisulfate reference |  | fluorescence quantum yield | 0.69 |
| CC(C)C[C@@H](NC(=O)[C@H](NC(=O)[C@H]1CCCN1)[C@H](C)O)C(=O)N[C@H](Cc1c[nH]cn1)C(=O)N[C@@H](C(=O)N[C@H](Cc1c[nH]cn1)C(=O)N[C@H](CC(N)=O)C(=O)N[C@H](CCCNC(=N)N)C(=O)N[C@H](CCCNC(=N)N)C(=O)N[C@H](CCCNC(=N)N)C(=O)N[C@H](CCCNC(=N)N)C(=O)N[C@H](CCCNC(=N)N)C(N)=O)[C@H](C)O |  | Beagle dogs both sexes, plasma | oral, 20 and 50 mg/kg |  | terminal half-life | ~70 h |
| CC(C)C[C@H](NC(=O)[C@H](CC(C)C)NC(=O)[C@@H](Cc1c[nH]c2ccccc12)NC(=O)[C@@H](NC(=O)[C@@H](Cc1csc2ccccc12)NC(=O)[C@@H](N)CCCCN)[C@@H](c1ccccc1)c1c[nH]c2ccccc12)C(N)=O | RP-HPLC Jupiter Proteo |  | acetonitrile/water TFA gradient |  | HPLC retention | 61 %B |
| CCC(=O)N(C)c1ccc(Cl)c(Cl)c1 | LC-MS/MS | mouse C57BL/6 female, plasma | subcutaneous, 2 mg/kg |  | AUC extrapolated | 4.55% |
| O=[11C](N1CCC(CNS(=O)(=O)c2ccc(Cl)cc2)CC1)n1cncn1 | PET | Sprague-Dawley rat, striatum | intravenous, dose not given, baseline |  | radioactivity uptake | 0.34 SUV |
| NS(=O)(=O)c1ccc(N2N=C(C(F)(F)F)CC2c2ccc(F)cc2F)cc1 (centres unmarked) |  | beagle dog, plasma | oral, 4 mg/kg, single dose |  | AUC(0-inf) | 47000 ng·h/mL |
| O=C([O-])c1cccc(CN(CCN(Cc2cn(Cc3ccccc3)nn2)Cc2cccc(C(=O)[O-])n2)Cc2cn(Cc3ccccc3)nn2)n1.[64Cu+2] |  | human serum | 20 h, 37 °C, with: 64Cu |  | radiometal bound to chelator | 98.3% |
| COc1ccc(-c2csc(N/N=C(\C)c3cc(O)cc(O)c3)n2)cc1 | equilibrium dialysis | human, male, plasma | 3 µM, 5 h, pH 7.4 |  | plasma protein binding | 99.8% |
| CC(C)c1cnc(-c2cc(Cl)ccc2F)cc1Nc1ccncc1C(=O)NC(CO)CO | monotherapy, measured: nausea | human patients | oral, dose not given, grade 2, phase I A |  | patients with treatment-related adverse event | 7.1% |
| O=C(O)C1CN(Cc2ccc(-c3noc(-c4ccc(OCC[18F])c(C(F)(F)F)c4)n3)cc2)C1 |  | C57BL/6 mouse LPS-treated | 60 min post-injection | relative to: sham mice | liver uptake | increased |
| COCCOCCOCCOc1ccc(/C=C/C2=[N+]3C(=C(c4cc(OC)cc(OC)c4)c4c(C)c(I)c(/C=C/c5ccc(OCCOCCOCCOC)cc5)n4[B-]3(F)F)C(C)=C2I)cc1 |  | THF |  |  | log molar absorptivity | 4.8 M⁻¹ cm⁻¹ |
| Cc1ncnc(C)c1-c1ccc(C(=O)N2CC[C@H](C(=O)Nc3cc(F)c(F)c(F)c3)C2)[nH]1 |  | human liver microsomes | 1 µM |  | CLint | 6.3 µL/min/mg protein |
| Cc1cc2c(cc1C1(c3ncc(C(=O)O)cn3)CC1)C(C)(C)CCC2(C)C |  | Sprague-Dawley rat, male | oral, 100 mg/kg, 12 h, sesame oil vehicle |  | blood cholesterol | 50 ± 4.5 mg/dL |
| OC1(C(F)(F)F)CCN(c2nc(Nc3ccnc(C(F)(F)F)c3)nc(-c3cccc(C(F)(F)F)n3)n2)C1 (centres unmarked) |  | human, plasma | 0.5, 5 and 50 µM, 6 h |  | unbound fraction | < 0.005 |
